{"data": "Measured values pooled from the literature", "note": "Lines come from different studies, so protocols differ. ± marks the error that the study gave."}
{"SMILES": "CC(C)C[C@H](NC(=O)[C@H](Cc1cccc2ccccc12)NC(=O)[C@H](CNC(=O)c1ccc(F)nc1)NC(=O)[C@H](CO)NC(=O)C1CCNCC1)C(=O)N[C@@H](CS)C(=O)N1CCC[C@H]1C(=O)N[C@H](C(N)=O)[C@@H](C)O", "assay": "chemical stability", "system": "male human, serum", "setting": "1 mM, pH 7.4", "quantity": "half-life", "value": "< 0.5 h"}
{"SMILES": "O=c1[nH]c(Cc2ccccn2)nc2c1cnn2C1CCOCC1", "system": "male human, plasma", "setting": "oral, 50 mg, single dose", "quantity": "half-life", "value": "1.34 h"}
{"SMILES": "COc1ccc(C[C@@H]2NC(=O)[C@H]([C@@H](C)O)NC(=O)[C@@H]3[C@@H]4CCN3C(=O)[C@@H]3Cc5cn(c6ccc(F)cc56)CCCCCCN(Cc5ccc(cc5)CCNC(=O)[C@]5(C)CCCN5C2=O)C(=O)CCC(=O)N[C@@H](C)C(=O)N[C@H](CNC(=O)CCCCC[N+](C)(C)C)C(=O)N[C@@H](Cc2cccc(c2)CNC(=O)CO4)C(=O)N3)cc1", "system": "healthy fasted humans, plasma", "setting": "oral, 200 mg single dose, geometric mean, with: Labrasol 1800 mg", "quantity": "half-life", "value": "95.5 h"}
{"SMILES": "O[C@H]1CCCN[C@@H]1CCCn1cnc2c(Cl)c(Cl)ccc21", "system": "healthy human volunteers, plasma", "setting": "oral, 100 mg, day 1, multiple ascending dose", "quantity": "half-life", "value": "3.81 h"}
{"SMILES": "CC(C)C[C@H](NC(=O)[C@H](Cc1cccc2ccccc12)NC(=O)[C@H](CNC(=O)c1ccc(F)nc1)NC(=O)[C@H](CO)NC(=O)C1CCNCC1)C(=O)N[C@@H](CCC(N)=O)C(=O)N1CCC[C@H]1C(=O)N[C@H](C(N)=O)[C@@H](C)O", "assay": "chemical stability", "system": "male human, serum", "setting": "1 mM, pH 7.4", "quantity": "half-life", "value": "> 24 h"}
{"SMILES": "CC[C@H](C)[C@H](NC(=O)[C@H](CCCNC(=N)N)NC(=O)[C@H](CC(C)C)NC(=O)[C@@H](N)Cc1ccccc1)C(=O)N[C@@H](CCCNC(=N)N)C(=O)N1CCC[C@H]1C(=O)N[C@H](CCCCN)C(=O)O", "system": "rat plasma", "setting": "37 °C", "quantity": "half-life", "value": "0.7 h"}
{"SMILES": "CCCCCCCCCCCCCCCC(=O)NCCCC[C@H](NC(=O)[C@H](CCC(=O)O)NC(=O)[C@H](CCC(=O)O)NC(=O)[C@H](Cc1ccc(O)cc1)NC(=O)[C@H](CCC(=O)O)NC(=O)CCCCCNC(=S)Nc1ccc2c(c1)C(=O)OC21c2ccc(O)cc2Oc2cc(O)ccc21)C(=O)N[C@@H](Cc1ccc(O)cc1)C(=O)N[C@@H](CCC(=O)O)C(=O)NCC(=O)NCC(=O)NCC(=O)NCC(=O)N[C@@H](CO)C(=O)NCC(=O)NCC(=O)NCC(=O)NCC(=O)N[C@@H](CO)C(=O)N[C@@H](Cc1ccccc1)C(=O)N[C@@H](CC(N)=O)C(=O)N1CCC[C@H]1C(=O)N[C@@H](CCCNC(=N)N)C(=O)N[C@@H](Cc1c[nH]cn1)C(=O)NC(C)(C)C(=O)N[C@@H](CCC(=O)O)C(=O)NCC(=O)N[C@H](C(=O)N[C@@H](Cc1ccccc1)C(=O)N[C@H](C(=O)N[C@@H](CO)C(=O)N[C@@H](CC(=O)O)C(=O)N[C@H](C(=O)N[C@@H](CO)C(=O)N[C@@H](CO)C(=O)N[C@@H](Cc1ccc(O)cc1)C(=O)N[C@@H](CC(C)C)C(=O)N[C@@H](CCC(=O)O)C(=O)NCC(=O)N[C@@H](CCC(N)=O)C(=O)N[C@@H](C)C(=O)N[C@@H](C)C(=O)N[C@@H](CCCCN)C(=O)N[C@@H](CCC(=O)O)C(=O)N[C@@H](Cc1ccccc1)C(=O)N[C@H](C(=O)N[C@@H](C)C(=O)N[C@@H](Cc1c[nH]c2ccccc12)C(=O)N[C@@H](CC(C)C)C(=O)N[C@H](C(=O)N[C@@H](CCCCN)C(=O)NCC(=O)N[C@@H](CCCNC(=N)N)C(=O)NCC(=O)O)C(C)C)[C@@H](C)CC)C(C)C)[C@@H](C)O)[C@@H](C)O", "assay": "item: released GLP-1 analogue", "system": "rhesus monkey, plasma", "setting": "subcutaneous, 30 nmol/kg", "quantity": "half-life", "value": "90.9 h"}
{"SMILES": "CCCCCOc1ccc(-c2cc(-c3ccc(C(=O)N[C@H]4C[C@@H](O)[C@@H](O)NC(=O)[C@@H]5[C@@H](O)[C@@H](C)CN5C(=O)[C@H]([C@H](O)CC(N)=O)NC(=O)[C@H]([C@H](O)[C@@H](O)c5ccc(O)c(OS(=O)(=O)O)c5)NC(=O)[C@@H]5C[C@@H](O)CN5C(=O)[C@H]([C@@H](C)O)NC4=O)cc3)no2)cc1", "system": "infants, plasma", "setting": "intravenous, 7 and 10 mg/kg/day, day 4, median", "quantity": "half-life", "value": "10.6 h"}
{"SMILES": "CN[C@@](C)(C[18F])C(=O)O", "system": "SCID mouse SK-OV-3 xenograft, blood", "setting": "15 min, post injection", "quantity": "tissue uptake", "value": "1.4 ± 0.3 %ID/g"}
{"note": "For quick reference, copied from above:"}
{"SMILES": "COc1ccc(C[C@@H]2NC(=O)[C@H]([C@@H](C)O)NC(=O)[C@@H]3[C@@H]4CCN3C(=O)[C@@H]3Cc5cn(c6ccc(F)cc56)CCCCCCN(Cc5ccc(cc5)CCNC(=O)[C@]5(C)CCCN5C2=O)C(=O)CCC(=O)N[C@@H](C)C(=O)N[C@H](CNC(=O)CCCCC[N+](C)(C)C)C(=O)N[C@@H](Cc2cccc(c2)CNC(=O)CO4)C(=O)N3)cc1", "system": "healthy fasted humans, plasma", "setting": "oral, 200 mg single dose, geometric mean, with: Labrasol 1800 mg", "quantity": "half-life", "value": "95.5 h"}
